Results gathered from unrelated publications.
Numbered parts are unrelated; each lists some results of a single study.

Sample 1
Target: Sal-like protein 4, full length isoform B (SALL4, Homo sapiens, UniProt Q9UJQ4-2, residues 1-616)
Method: universal PBM
Form: double-stranded DNA, one strand shown
Medium: in vitro
Concentration: not given
Setting: 8-mer, flanks averaged, mean of replicates
Reading: higher = stronger binding
Construct (chain): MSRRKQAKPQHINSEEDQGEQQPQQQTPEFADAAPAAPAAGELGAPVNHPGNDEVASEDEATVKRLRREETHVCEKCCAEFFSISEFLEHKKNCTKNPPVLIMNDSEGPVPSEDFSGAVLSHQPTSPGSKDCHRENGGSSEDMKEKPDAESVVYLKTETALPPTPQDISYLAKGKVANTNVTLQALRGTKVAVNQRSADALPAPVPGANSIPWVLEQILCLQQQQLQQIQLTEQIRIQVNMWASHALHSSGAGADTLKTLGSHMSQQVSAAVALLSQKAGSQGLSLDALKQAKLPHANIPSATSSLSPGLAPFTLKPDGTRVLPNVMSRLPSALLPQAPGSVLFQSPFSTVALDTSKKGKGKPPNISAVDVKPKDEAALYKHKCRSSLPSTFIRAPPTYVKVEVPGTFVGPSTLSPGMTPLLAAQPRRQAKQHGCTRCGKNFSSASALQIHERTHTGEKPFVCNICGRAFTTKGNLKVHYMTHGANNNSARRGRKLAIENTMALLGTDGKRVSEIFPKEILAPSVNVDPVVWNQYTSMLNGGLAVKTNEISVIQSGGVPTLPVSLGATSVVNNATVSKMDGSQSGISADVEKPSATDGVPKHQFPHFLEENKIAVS
| Sequence | E-score |
| --- | --- |
| CAGGCAAG | -0.0614 |
| GTCCGAAA | 0.00425 |
| CTTGCTAC | -0.0847 |
| TCTTAAGA | 0.15 |

Sample 2
Target: Centromere-binding protein 1, full length, His-tagged (CBF1, Saccharomyces cerevisiae, UniProt P17106, residues 1-351)
Sequence of UniProt P17106 (whole entry, looked up): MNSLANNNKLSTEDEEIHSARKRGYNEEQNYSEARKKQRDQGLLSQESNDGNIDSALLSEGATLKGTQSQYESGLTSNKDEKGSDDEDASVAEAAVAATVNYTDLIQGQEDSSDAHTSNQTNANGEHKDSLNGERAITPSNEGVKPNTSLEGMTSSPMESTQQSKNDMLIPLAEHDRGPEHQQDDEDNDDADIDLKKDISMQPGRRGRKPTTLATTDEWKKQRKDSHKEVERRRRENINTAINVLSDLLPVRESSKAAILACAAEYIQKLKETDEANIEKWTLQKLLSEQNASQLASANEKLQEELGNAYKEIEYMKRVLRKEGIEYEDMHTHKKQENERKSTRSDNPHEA
Method: competition protein-binding microarray
Form: double-stranded DNA, one strand shown
Medium: in vitro
Concentration: 2 µM
Setting: whole 60-bp probe, lowest competitor level
Together with: Pho4 competitor, 0.05 µM
Reading: higher = stronger binding
| Sequence | fluorescence intensity [a.u.] |
| --- | --- |
| CCACTGCCACTATTGCACGTAACGCCATTTTTCCAAGTCTTGATTCGCTTGACGCTGCTG | 76.8 |
| GTTAAGTTATTATGACGCATGCAGATAGAAGGATCAGTCTTGATTCGCTTGACGCTGCTG | 90 |
| GTCTTGTCTCATTGCTGCGTGGGTGTCCCCACTTCAGTCTTGATTCGCTTGACGCTGCTG | 68.3 |
| ACCCCCGCCCTCAAAGCCGTGACTCGATAACGACTTGTCTTGATTCGCTTGACGCTGCTG | 133 |

Sample 3
Target: Interferon regulatory factor 7, full length, phosphomimetic (IRF7, Homo sapiens, UniProt Q92985, residues 1-503, S101K/S471D/S472D/S475D/S476D/S477D/S483D/S484D/S487D)
Method: protein-binding microarray
Form: double-stranded DNA, one strand shown
Medium: in vitro
Concentration: 250 nM
Setting: 60-bp whole probe
Together with: salmon DNA 0.4 mg/ml
Baseline: random background probes
Reading: higher = stronger binding
Constant ends, left off below: GCCTAGCAC … GTCTTGATTCGCTTGACGCTGCTG
Residues (chain): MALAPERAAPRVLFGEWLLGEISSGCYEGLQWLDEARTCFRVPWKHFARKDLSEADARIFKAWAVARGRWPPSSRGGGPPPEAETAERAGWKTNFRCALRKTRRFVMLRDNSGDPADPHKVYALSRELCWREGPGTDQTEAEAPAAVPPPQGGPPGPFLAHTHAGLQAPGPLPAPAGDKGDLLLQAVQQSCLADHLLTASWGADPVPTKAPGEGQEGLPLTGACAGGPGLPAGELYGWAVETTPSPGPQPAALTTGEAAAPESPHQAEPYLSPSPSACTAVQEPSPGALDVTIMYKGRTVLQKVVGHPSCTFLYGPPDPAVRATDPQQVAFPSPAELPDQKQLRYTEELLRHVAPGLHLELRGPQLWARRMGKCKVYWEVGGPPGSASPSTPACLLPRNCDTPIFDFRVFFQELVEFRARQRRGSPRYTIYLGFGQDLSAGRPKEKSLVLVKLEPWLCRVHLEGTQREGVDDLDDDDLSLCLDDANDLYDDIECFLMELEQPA
| Sequence | log fluorescence |
| --- | --- |
| GACGGTTTCCTTCTCCTTACGTGCTAG | 2.53 z-score |
| CCTCCTCTCTCTTTCCACTTGTGCTAG | 0.637 z-score |
| TTAGGTATCGGTTTCGGTGAGTGCTAG | 6.29 z-score |
| CTAGATATCAGACTGGATTAGTGCTAG | 0.587 z-score |
| CCCCAACTCGCCTTTTTTGTTGTGCTA | -0.135 z-score |
| TTAGGTTTCGACATTCGGTTAGTGCTA | 7.74 z-score |

Further values, each from its own experiment
| Molecule | target | test | system | setting | scale | endpoint | value |
| --- | --- | --- | --- | --- | --- | --- | --- |
| PhoQ, residues 284 288 289 292 302 303 SQSLSM | PhoP, residues 12 14 15 18 19 HLGGL (Escherichia coli, UniProt P23836) | Sort-seq, measured: YFP reporter | E. coli | PhoQ-PhoP variant library, together with: 10 µM Mg2+ | baseline: high Mg2+ state, higher = stronger signaling | fold induction | 1.31 |
